Published values of several laboratories.
Compare with care: the assays were run in different laboratories.
PFF0160c: Dihydroorotate dehydrogenase (quinone), mitochondrial (PFF0160c, Plasmodium falciparum, UniProt Q08210)
HTR2C: 5-hydroxytryptamine receptor 2C (HTR2C, Homo sapiens, UniProt P28335)
Sequence of UniProt P28335 (whole entry, looked up): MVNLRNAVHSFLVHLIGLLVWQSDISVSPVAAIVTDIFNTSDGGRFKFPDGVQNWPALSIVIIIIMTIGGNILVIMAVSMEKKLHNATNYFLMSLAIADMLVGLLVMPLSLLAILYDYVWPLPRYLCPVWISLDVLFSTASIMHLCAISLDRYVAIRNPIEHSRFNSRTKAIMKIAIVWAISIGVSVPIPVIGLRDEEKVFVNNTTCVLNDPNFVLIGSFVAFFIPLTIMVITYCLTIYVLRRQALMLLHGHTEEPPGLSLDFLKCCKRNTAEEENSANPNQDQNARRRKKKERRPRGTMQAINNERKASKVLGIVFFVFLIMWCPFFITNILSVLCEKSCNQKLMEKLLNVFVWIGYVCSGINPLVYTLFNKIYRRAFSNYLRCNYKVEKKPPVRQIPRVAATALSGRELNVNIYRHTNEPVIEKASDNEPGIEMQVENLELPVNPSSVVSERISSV
PFF0160c E182D: Dihydroorotate dehydrogenase (quinone), mitochondrial (PFF0160c, Plasmodium falciparum, UniProt Q08210, E182D)
CA2: Carbonic anhydrase 2 (CA2, Homo sapiens, UniProt P00918)
CA12: Carbonic anhydrase 12 (CA12, Homo sapiens, UniProt O43570)
Sequence of UniProt O43570 (whole entry, looked up): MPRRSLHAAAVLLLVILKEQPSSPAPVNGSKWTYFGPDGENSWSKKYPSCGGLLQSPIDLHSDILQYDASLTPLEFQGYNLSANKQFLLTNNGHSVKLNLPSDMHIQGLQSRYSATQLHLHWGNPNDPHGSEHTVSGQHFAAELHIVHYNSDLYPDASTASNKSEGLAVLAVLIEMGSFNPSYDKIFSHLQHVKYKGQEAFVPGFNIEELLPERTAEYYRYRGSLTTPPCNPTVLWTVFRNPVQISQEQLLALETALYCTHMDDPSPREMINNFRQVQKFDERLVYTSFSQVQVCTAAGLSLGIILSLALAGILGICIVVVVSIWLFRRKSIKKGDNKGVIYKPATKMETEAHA
Sequence of UniProt Q9Y2R2 (whole entry, looked up): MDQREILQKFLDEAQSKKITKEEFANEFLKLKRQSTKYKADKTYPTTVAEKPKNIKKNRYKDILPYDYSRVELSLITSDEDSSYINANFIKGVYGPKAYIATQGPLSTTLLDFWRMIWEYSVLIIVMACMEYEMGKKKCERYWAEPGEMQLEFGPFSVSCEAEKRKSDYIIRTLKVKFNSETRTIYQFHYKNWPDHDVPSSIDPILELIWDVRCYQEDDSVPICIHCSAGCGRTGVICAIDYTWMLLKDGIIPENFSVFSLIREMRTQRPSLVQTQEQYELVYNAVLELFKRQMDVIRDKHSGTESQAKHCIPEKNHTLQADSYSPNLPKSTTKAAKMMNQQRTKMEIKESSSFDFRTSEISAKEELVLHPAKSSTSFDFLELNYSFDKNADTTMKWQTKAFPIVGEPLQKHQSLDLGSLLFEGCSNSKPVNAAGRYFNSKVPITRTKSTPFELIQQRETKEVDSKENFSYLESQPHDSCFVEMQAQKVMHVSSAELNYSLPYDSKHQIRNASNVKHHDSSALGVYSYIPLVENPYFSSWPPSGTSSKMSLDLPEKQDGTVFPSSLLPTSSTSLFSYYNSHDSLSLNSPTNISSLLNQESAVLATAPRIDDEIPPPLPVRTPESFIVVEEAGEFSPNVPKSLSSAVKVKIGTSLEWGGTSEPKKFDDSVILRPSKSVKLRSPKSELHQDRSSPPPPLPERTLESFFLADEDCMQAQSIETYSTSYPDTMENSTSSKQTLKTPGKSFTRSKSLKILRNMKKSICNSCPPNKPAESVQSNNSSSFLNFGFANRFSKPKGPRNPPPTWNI
Sequence of UniProt Q96RR4 (whole entry, looked up): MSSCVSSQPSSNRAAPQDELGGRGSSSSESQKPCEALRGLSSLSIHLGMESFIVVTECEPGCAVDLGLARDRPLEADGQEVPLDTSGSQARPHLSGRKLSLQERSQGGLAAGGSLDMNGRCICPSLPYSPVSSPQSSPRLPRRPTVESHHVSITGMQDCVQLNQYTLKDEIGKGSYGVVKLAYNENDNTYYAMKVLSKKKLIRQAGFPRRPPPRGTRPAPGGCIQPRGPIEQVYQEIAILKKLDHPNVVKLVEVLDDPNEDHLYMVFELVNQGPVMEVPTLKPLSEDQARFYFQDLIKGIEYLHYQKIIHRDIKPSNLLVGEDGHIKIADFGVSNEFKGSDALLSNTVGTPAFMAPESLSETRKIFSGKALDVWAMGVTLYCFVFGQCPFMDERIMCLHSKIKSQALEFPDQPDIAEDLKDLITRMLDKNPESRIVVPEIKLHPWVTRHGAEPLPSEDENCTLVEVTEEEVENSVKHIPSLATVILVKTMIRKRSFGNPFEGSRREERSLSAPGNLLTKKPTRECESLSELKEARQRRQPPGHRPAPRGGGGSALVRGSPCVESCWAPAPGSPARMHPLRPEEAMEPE
Sequence of UniProt O75582 (whole entry, looked up): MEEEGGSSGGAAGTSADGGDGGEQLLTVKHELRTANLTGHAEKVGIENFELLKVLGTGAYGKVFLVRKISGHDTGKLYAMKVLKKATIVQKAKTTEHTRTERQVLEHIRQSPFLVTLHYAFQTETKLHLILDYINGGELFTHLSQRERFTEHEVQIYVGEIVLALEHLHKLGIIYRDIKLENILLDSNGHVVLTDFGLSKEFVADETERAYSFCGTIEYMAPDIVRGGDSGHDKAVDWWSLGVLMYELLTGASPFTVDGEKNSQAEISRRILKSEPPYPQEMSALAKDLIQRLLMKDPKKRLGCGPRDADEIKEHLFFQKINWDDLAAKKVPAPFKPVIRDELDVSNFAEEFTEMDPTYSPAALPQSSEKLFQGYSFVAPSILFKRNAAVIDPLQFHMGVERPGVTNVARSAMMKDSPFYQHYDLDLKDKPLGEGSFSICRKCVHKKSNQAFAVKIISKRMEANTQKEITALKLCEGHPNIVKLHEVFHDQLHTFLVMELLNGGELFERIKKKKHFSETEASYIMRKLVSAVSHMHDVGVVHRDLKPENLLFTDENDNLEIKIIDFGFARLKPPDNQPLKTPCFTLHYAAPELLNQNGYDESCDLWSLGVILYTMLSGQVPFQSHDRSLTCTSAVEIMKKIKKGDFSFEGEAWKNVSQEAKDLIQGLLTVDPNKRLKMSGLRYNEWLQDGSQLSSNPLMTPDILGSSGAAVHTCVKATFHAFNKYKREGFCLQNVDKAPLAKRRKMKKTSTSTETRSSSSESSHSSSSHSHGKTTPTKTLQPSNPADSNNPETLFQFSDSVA
Sequence of UniProt P55786 (whole entry, looked up): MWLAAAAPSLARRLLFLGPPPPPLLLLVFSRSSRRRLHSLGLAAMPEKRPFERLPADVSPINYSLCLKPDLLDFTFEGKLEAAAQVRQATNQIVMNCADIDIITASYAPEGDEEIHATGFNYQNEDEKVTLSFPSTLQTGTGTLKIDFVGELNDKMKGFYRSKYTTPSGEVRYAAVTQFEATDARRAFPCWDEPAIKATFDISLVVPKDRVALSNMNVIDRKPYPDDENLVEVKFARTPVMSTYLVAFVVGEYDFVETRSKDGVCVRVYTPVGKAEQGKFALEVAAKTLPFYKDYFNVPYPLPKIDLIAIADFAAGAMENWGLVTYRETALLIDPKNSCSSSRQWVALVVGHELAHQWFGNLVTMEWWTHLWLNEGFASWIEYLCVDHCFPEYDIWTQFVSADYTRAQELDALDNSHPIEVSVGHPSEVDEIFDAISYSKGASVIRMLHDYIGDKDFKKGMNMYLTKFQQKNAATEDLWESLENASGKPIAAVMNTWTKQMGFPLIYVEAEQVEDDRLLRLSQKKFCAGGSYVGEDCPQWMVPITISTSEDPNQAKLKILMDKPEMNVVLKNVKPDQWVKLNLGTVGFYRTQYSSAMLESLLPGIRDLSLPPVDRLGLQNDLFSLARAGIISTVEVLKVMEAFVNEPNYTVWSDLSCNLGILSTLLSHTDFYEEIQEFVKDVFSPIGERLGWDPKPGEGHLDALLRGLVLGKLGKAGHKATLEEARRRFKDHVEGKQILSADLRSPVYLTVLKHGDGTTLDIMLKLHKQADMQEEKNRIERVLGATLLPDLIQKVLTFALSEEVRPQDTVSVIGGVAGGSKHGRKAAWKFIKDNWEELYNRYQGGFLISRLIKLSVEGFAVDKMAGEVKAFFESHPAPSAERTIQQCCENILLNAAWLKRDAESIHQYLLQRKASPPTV
Sequence of UniProt P34968 (whole entry, looked up): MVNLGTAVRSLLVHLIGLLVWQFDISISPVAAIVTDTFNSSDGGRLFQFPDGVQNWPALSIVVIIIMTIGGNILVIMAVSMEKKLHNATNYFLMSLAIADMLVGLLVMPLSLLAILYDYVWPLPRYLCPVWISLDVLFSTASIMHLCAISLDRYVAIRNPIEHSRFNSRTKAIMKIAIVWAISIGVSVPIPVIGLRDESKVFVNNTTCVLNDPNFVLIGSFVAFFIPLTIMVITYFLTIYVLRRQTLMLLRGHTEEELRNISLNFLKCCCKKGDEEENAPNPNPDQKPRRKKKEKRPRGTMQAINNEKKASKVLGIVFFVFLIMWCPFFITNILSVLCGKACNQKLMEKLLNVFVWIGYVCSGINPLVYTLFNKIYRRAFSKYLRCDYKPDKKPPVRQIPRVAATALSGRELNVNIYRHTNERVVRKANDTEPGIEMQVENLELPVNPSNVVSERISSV
Sequence of UniProt P23795 (whole entry, looked up): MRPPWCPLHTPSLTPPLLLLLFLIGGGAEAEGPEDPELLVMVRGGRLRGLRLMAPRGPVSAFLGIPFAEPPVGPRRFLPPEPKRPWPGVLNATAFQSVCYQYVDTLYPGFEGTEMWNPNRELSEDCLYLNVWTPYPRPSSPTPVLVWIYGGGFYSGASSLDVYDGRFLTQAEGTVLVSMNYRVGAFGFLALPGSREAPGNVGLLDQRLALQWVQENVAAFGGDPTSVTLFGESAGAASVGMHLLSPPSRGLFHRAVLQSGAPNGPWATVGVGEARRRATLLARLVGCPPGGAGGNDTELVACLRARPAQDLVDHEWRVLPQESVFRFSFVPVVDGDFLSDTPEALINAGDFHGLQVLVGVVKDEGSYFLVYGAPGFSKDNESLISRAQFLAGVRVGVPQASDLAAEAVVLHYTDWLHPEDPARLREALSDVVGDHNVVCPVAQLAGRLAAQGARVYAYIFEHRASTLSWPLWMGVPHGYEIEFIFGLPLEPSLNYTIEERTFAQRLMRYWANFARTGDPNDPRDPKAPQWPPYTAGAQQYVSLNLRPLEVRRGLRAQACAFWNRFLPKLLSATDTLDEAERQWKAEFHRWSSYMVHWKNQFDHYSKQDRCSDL

COc1cc(CCNCc2ccccc2OC)c(OC)cc1Br — EC50 (Htr2c (Mus musculus, UniProt P34968); G protein activation, agonist, BRET): 0.182 nM
CN(C)c1ncnc2c1ncn2[C@@H]1O[C@H](CCl)[C@@H](NC(=O)[C@H](CSC(c2ccccc2)c2ccccc2)NC(=O)OC(C)(C)C)[C@H]1O — IC50 (Puromycin-sensitive aminopeptidase (Homo sapiens, UniProt P55786); enzyme activity, inhibitor, fluorescence): 5900 nM
Cc1ccc(C(=O)Nc2ccc(F)c(F)c2F)cc1S(=O)(=O)N1CCCCC1 — IC50 (PFF0160c; enzyme activity, inhibitor, absorbance): 708 nM
COc1cc(CCNC(C)c2ccccc2)c(OC)cc1C#N (centres unmarked) — EC50 (HTR2C; G protein activation, agonist, BRET): 1600 nM
Cc1cc(NC(=O)c2cc(S(=O)(=O)N3CCCCC3)ccc2C)no1 — IC50 (PFF0160c E182D; enzyme activity, inhibitor, absorbance): 4850 nM
S=C(SSC(=S)N1CCCCC1)N1CCCCC1 — IC50 (PTPN22 (Homo sapiens, UniProt Q9Y2R2); enzyme activity, inhibitor, fluorescence; pH 6.5): 15000 nM
CNC(C)Cc1ccc2c(c1)OCO2 (centres unmarked) — IC50 (SLC22A1 (Homo sapiens, UniProt O15245); transporter uptake, inhibitor): 2150 nM
O=C(Nc1ccccc1)Nc1ccc2c(c1)C=CCP(=O)(O)O2 — Ki (CA2; enzyme activity, inhibitor, stopped-flow): > 10000 nM
C=CC[N+](C)(C)c1ccc(CCC(=O)CCc2ccc([N+](C)(C)CC=C)cc2)cc1 — IC50 (Acetylcholinesterase (Bos taurus, UniProt P23795); enzyme activity, inhibitor, Ellman): 16 nM
Oc1ccc(-c2cc(COc3ccccc3C(F)(F)F)c(C3=CCNCC3)cc2COc2ccccc2C(F)(F)F)cc1 — IC50 (PFF0160c; enzyme activity, inhibitor, absorbance): > 10000 nM
Cc1ccc(NC(=O)Nc2ccc3c(c2)C=CCP(=O)(O)O3)cc1 — Ki (CA12; enzyme activity, inhibitor, stopped-flow): > 10000 nM
COC(=O)c1cc(-c2cccc(NC(=O)Nc3ccc(Cl)cc3)c2)on1 — MIC (Klebsiella pneumoniae; microbial growth, broth dilution; BAA1705): > 64 µg/mL
Cc1nc(Nc2ccc(S(F)(F)(F)(F)F)cc2)c2c(C)noc2n1 — IC50 (PFF0160c; enzyme activity, inhibitor, absorbance): 129 nM
COc1cc(CCNC(C)c2ccccc2O)c(OC)cc1C#N (centres unmarked) — EC50 (Htr2a (Mus musculus, UniProt P35363); G protein activation, agonist, BRET): 13.8 nM
Cc1nn(C)cc1-c1nc2c(N3CCN(Cc4ccc(Cl)cc4)CC3)c(Cl)cnc2[nH]1 — remaining binding (Ribosomal protein S6 kinase alpha-5, N-terminal kinase domain (RPS6KA5, Homo sapiens, UniProt O75582); binding, competition with immobilised ligand; 1 µM): 100%
COC(=O)c1cc(-c2cccc(NC(=O)Nc3ccc(F)cc3F)c2)on1 — MIC (Klebsiella pneumoniae; microbial growth, broth dilution; BAA1705): > 64 µg/mL
CCC(NCCc1cc(OC)c(C#N)cc1OC)c1ccccc1O (centres unmarked) — EC50 (HTR2C; G protein activation, agonist, BRET): 2400 nM
O=C(Nc1ccc2c(c1)C=CCP(=O)(O)O2)c1ccccc1I — Ki (CA2; enzyme activity, inhibitor, stopped-flow): > 10000 nM
COc1ccc2nc(C)cc(Nc3ccc(Cl)c(Cl)c3)c2c1 — IC50 (PFF0160c E182D; enzyme activity, inhibitor, absorbance): > 10000 nM
O=C(Nc1ccc2c(c1)C=CCP(=O)(O)O2)c1ccccc1 — Ki (CA12; enzyme activity, inhibitor, stopped-flow): 7.3 nM
Nc1ncc(-c2nc(N3CCOCC3)nc(N3CCOCC3)n2)c(C(F)F)n1 — remaining binding (Tyrosine-protein kinase ABL1, phosphorylated (ABL1, Homo sapiens, UniProt P00519, T315I); binding, competition with immobilised ligand; 10 µM): 64%
O=c1c2cccnc2sn1-c1ccccc1 — IC50 (PFF0160c E182D; enzyme activity, inhibitor, absorbance): 726 nM
[2H]c1c([2H])c([C@]2([2H])CCCN2C(=O)C(C)(C)Oc2ccc3cn[nH]c3c2)c([2H])c([2H])c1C([2H])([2H])[2H] — remaining binding (CAMKK2 (Homo sapiens, UniProt Q96RR4); binding, competition with immobilised ligand; 1 µM): 70%

Repeated from above:
COC(=O)c1cc(-c2cccc(NC(=O)Nc3ccc(Cl)cc3)c2)on1 — MIC (Klebsiella pneumoniae; microbial growth, broth dilution; BAA1705): > 64 µg/mL
O=c1c2cccnc2sn1-c1ccccc1 — IC50 (PFF0160c E182D; enzyme activity, inhibitor, absorbance): 726 nM
O=C(Nc1ccccc1)Nc1ccc2c(c1)C=CCP(=O)(O)O2 — Ki (CA2; enzyme activity, inhibitor, stopped-flow): > 10000 nM
